Measurements from different studies.
Several values in a cell are separate wells, animals, samples, runs or records.
EGFR L858R: Epidermal growth factor receptor (EGFR, Homo sapiens, UniProt P00533, L858R)
EGFR: Epidermal growth factor receptor (EGFR, Homo sapiens, UniProt P00533)
EGFR G719C: Epidermal growth factor receptor (EGFR, Homo sapiens, UniProt P00533, G719C)
EGFR del746-750: Epidermal growth factor receptor (EGFR, Homo sapiens, UniProt P00533, del746-750)
EGFR L858R/T790M: Epidermal growth factor receptor (EGFR, Homo sapiens, UniProt P00533, L858R/T790M)

COCC12C(=O)NC3C4(C(OC)CC1O)C1CC5(O)C(OC)C(O)C(OC(C)=O)(C1C5OC(=O)c1ccccc1)C3(O)C(OC)C24 (stereo not shown) — remaining activity (EGFR L858R; kinase activity, inhibitor, ProQinase kinase profiling; 25 µM; relative to: control): 96% and 94%
C=C1CCCCCCCCCC(CO)C1=O (stereo not shown) — remaining signal (EGFR; cell-free assay; 10 µM): 100%
CCN1CCN(Cc2ccc(NC(=O)c3ccc(C)c(NC(=O)c4cncc(-c5cccs5)c4)c3)cc2C(F)(F)F)CC1 — remaining binding (EGFR L858R; binding, competition with immobilised ligand; 1 µM): 0.7%
O=c1c(-c2ccc(Cl)c(CN3CCOCC3)c2)coc2cc(O)ccc12 — remaining activity (EGFR; enzyme activity, inhibitor; 1 µM): 95%
CNC(=O)C1CCN(c2cc(C)c(F)cc2NC(=O)c2ccc(-c3cc(O)ccc3C)c(C)c2)CC1 — remaining binding (EGFR; binding, competition with immobilised ligand; 1 µM): 46%
Cc1cnc2nc1Nc1cccc(c1)COC/C=C/COCc1cc(ccc1OCCN1CCOCC1)N2 — remaining activity (EGFR G719C; concentration not given; relative to: untreated control): 91%
C=CC(=O)N1CCc2ccc(-n3c(=O)ccc4cnc5ccc(-c6cnn(C)c6)cc5c43)cc21 — remaining binding (EGFR (Homo sapiens, UniProt P00533, A750P/del747-749); KINOMEscan; 1 µM; relative to: control): 100%
Nc1ncc2c(n1)-c1c([nH]c3ccc(C4=CCOCC4)cc13)CCC2 — remaining binding (EGFR; binding, competition with immobilised ligand; 1 µM): 100%
C=CC(=O)N1CCCC(n2c(=O)c3ncccc3n(Cc3ccc(Oc4ccccc4)cc3)c2=O)C1 (stereo not shown) — remaining binding (EGFR del746-750; cell-free assay, competition with immobilised ligand; 1 µM): 92%
COc1cc(OC)c(F)c(/C=C/c2cnc3ccn(S(=O)(=O)c4cn(CCF)cn4)c3n2)c1F — inhibition (EGFR; 1000 nM): 0%
O=C(Cc1ccc(OCc2ccccc2)cc1)NC1(C(=O)O)CCN(C(=O)c2ccc(-c3cccc(Cl)c3)cc2)CC1 — activity vs control (EGFR; enzyme activity, inhibitor; 10 µM): 119%
CC(C)[C@H](NC(=O)[C@H](CCC(=O)O)NC(=O)[C@H](CCC(=O)O)NC(=O)[C@H](Cc1ccc(O)cc1)NC(=O)[C@H](CCC(=O)O)NC(=O)[C@H](CC(=O)O)NC(=O)[C@H](CC(=O)O)NC(=O)[C@H](CCC(=O)O)NC(=O)c1ccc2c(c1)C1(OC2=O)c2ccc(O)cc2Oc2cc(O)ccc21)C(N)=O — Km (EGFR; enzyme activity, substrate): 40.2 µM
CNC1C[S+]2CC[S+]3CC[S+](C1)[Ru-4]321([N]=C=S)[n]2c3ccc(OC)cc3c3c4c(c5cc(F)c[n+]1c5c32)C(=O)NC4=O (stereo not shown) — remaining binding (EGFR del746-750; KinomeScan; 0.1 µM; relative to: untreated): 61%
CCN1CCN(Cc2ccc(C(=O)Nc3ccc(C)c(NCc4cnc5[nH]ccc5c4OC)c3)cc2C(F)(F)F)CC1 — remaining binding (EGFR L858R/T790M; binding, competition with immobilised ligand; 1 µM): 72%
COc1ccc(NC(=O)Nc2ccc3c(c2)C(=O)N(C(C)CO)CC(C)C(CN(C)Cc2ccc4c(c2)OCO4)O3)cc1 (stereo not shown) — remaining activity (EGFR; kinase activity, KinaseProfiler; 0.03 µM, species human; relative to: control): 104%
CC(C)=CC1OC(C)(C)C2C=C3C(=O)C(Cl)=CC(O)C3C3C(O)C4OC4C(=O)C132 (stereo not shown) — remaining binding (EGFR (Homo sapiens, UniProt P00533, del747-750/T751S); cell-free assay, competition with immobilised ligand; 10 µM): 95%
COc1c(Cl)cccc1Nc1c(-c2ccncc2C#C[C@@]2(C)CCCN2C(=O)/C=C/CN(C)C)[nH]c2c1C(=O)NCC2 — remaining binding (EGFR L858R/T790M; cell-free assay, competition with immobilised ligand; 3 µM): 2.1%
O=C=[N][Ru-4]123([n]4c5ccc(O)cc5c5c6c(c7cc(F)c[n+]1c7c54)C(=O)NC6=O)[S+]1CC[S+]2CC[S+]3CC1 (stereo not shown) — remaining activity (EGFR (Homo sapiens, UniProt P00533, T790M); enzyme activity; 100 nM, human enzyme, together with: 10 µM ATP; relative to: untreated): 111%
Cc1ccc(-c2c(/C=C(\C#N)C(=O)NC(C)C)n(CCCO)c3ncnc(N)c23)cc1 — remaining binding (EGFR G719C; cell-free assay, competition with immobilised ligand; 1 µM): 100%
